Experimental data of several laboratories.
Parts stem from different laboratories: compare values within a part only. Substitutions count along the parent as printed.

Sample 1
Target: CCNB1, cyclin fold, Cln2 fusion (human)
Method: yeast growth competition, sequencing
Medium: yeast
Notes: weak parent motif
Reference: not given
Direction: higher = stronger binding
Measurement: normalised enrichment score
Starting sequence: RB1 docking peptide (human); PKPLKKLRFDIEG
PKPIKKLRFDIEG [L4I]: 1.75
HKPLKKLRFDIEG [P1H]: 1.1
PKPLKKLRFDIIG [E12I]: 1.04
PKPLKKPRFDIEG [L7P]: 0.535
PKPLAKARFDIEG [K5A L7A]: 0.206
PKPLKKLRFRIEG [D10R]: 1.21
PKPLKKLRFDPEG [I11P]: 0.94

Sample 2
Target: RNA binding protein fox-1 homolog 2, RRM domain, GST-SBP tag (RBFOX2, Homo sapiens, UniProt O43251-10, residues 100-194)
Method: RNA Bind-n-Seq
Form: RNA
Medium: in vitro
Concentration: 365 nM
Notes: natural RNA segment, single round, ends assumed
Reference: no-protein control
Direction: higher = stronger binding
Measurement: RBNS enrichment (R)
Constant ends, left off below: GGGAGUUCUACAGUCCGACGAUC … UGGAAUUCUCGGGUGCCAA
CUUCCUUGGGCCUUUACUUCUUUUCUUCCUCCUUGGUUUCAGUUCCCAUGUGCUAUCAUUAUAAUCAUGCAGACUUUUACUUCAGUUGCUUCUGAAAGCACUAAGUUUUC: 0.399
AACUGUUCCACUUGAACCCGGGAGCUUUAAAGCUUUAUUUAUUUAUAGCUUCUUAUUAAAAAUUUAAAAAAAGCGUUGAGGAGGAAUCCUUUGGUUAUUCAUACGGAAUU: 0.515
ACAAUGAAUUCAAUCUAUCAGGAUGUUCAUUUUUGGUAGGGAAUGGUUAAAAGAAAAGAACAAUAAGAUGCAUUCAAAGAAUAAUUGCUUUCAGCCUGCUGCCUAAAUCG: 1.29
UGGUCUUCUCUGCAGAGAACUGAGGCUAAACUCUGUCCCUACUUCUGGUUUUGCCCUGUCAUGUCGUAACGAGGUGGGCCUUUUGAGGCCAUUUUAGUUUGAGUUCGAGC: 0.443
UUCCAAUGCCUGGAGGGCCUCCACUUUGUGGCCAGCCUGUGGUGGUGGCUCUGAGGCCUAGGCAACGAGCGACAGGGCUGCCAGUUGCCCCUGGGUUCCUUUGUGCUGCU: 0.603
UGCGGCAAGGUCCCAGCGGUCGCUGGGAGACAGAAGGUUUUGUGCCCUGCUGUAUCAUAAAGCACACACUUAGCGCUCUGGAGCCGGACGGUGGCUCCACCACUUCCGCA: 0.778
UGCUACCACUUCGCAUUUCAUCUGUGAGGCAUUUCAUCUUUUAGACAUGUCUUCAUGUCCAGCUACUUGUUUCACCAUGGCAGACCUCCCUGAGCCUUCUUCCUGCCCUG: 0.425
GUCUCAGUGUUAUUAAUGAGAAAAAGUUCUGUCAUUCAGGAAAAAAAAGCAAAAAACGUGAGGUUGGGACUCAGUAGGUGAGGGUGCUUGCAGCCAAACCUGAUGACCUG: 0.414

Sample 3
Target: Histone acetyltransferase KAT6A, winged helix 1, GST fusion (KAT6A, Homo sapiens, UniProt Q92794, residues 1-85)
Method: protein binding microarray
Form: double-stranded DNA, one strand shown
Medium: in vitro
Concentration: not given
Notes: 8-mer, flanks averaged, mean of 2 arrays, mostly near background
Reference: not given
Direction: higher = stronger binding
Measurement: E-score
Residues (chain): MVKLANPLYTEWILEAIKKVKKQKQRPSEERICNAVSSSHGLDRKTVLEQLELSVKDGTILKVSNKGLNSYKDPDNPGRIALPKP
CAGCGGCC: 0.371
AATTGGCC: -0.139
TGGCACAA: -0.243
CAGAACTC: -0.134
CTGGTCCC: -0.176
CCCCAGGG: -0.0999
ACGTGTGC: -0.19
CTGTAGCA: -0.162

Further values, each from its own experiment
PhoQ, residues 284 288 289 292 302 303 SLANKL  fold induction (PhoP, residues 12 14 15 18 19 AWHSL (Escherichia coli, UniProt P23836); Sort-seq, item: YFP reporter; E. coli; PhoQ-PhoP variant library, added: 10 µM Mg2+; reference: high Mg2+ state, higher = stronger signaling): 6

A few entries again (sample 1):
HKPLKKLRFDIEG [P1H]: 1.1
